Measured values collected from several papers.
Compare with care: the assays were run in different laboratories. Numbers after ± are the reported error.

Compound	test	test system	conditions	endpoint	result
Clc1cc2c(cc1Cl)Oc1c(ccc(Cl)c1Cl)O2	–	whole cow milk	20 nM nominal	dose fraction in milk fat	84%
C[C@@H]1NC(=O)[C@H](CCCCNC(=O)CO/N=C/C(=O)NCCCC[C@@H]2NC(=O)[C@@H](Cc3ccccc3)NC(=O)[C@H](CC(=O)O)NC(=O)CNC(=O)[C@H](CCCNC(=N)N)NC2=O)NC(=O)CNC(=O)[C@@H]2CCCN2C(=O)[C@H](CCCCNC(=O)CO/N=C/C(=O)NCCCC[C@@H]2NC(=O)[C@@H](Cc3ccccc3)NC(=O)[C@H](CC(=O)O)NC(=O)CNC(=O)[C@H](CCCNC(=N)N)NC2=O)NC(=O)[C@H](CCCCNC(=O)[C@H](CCCCN)NC(=O)[C@H](Cc2ccccc2)NC(=O)CNC(=O)CN2CCCNCCNCCCNCC2)NC(=O)[C@H](CCCCNC(=O)CO/N=C/C(=O)NCCCC[C@@H]2NC(=O)[C@@H](Cc3ccccc3)NC(=O)[C@H](CC(=O)O)NC(=O)CNC(=O)[C@H](CCCNC(=N)N)NC2=O)NC(=O)CNC(=O)[C@@H]2CCCN2C(=O)[C@H](CCCCNC(=O)CO/N=C/C(=O)NCCCC[C@@H]2NC(=O)[C@@H](Cc3ccccc3)NC(=O)[C@H](CC(=O)O)NC(=O)CNC(=O)[C@H](CCCNC(=N)N)NC2=O)NC1=O [copper-64 labelled]	–	normal mice, heart	intravenous, 0.74 MBq, 3 h post-injection	tissue uptake	1.65 ± 0.33 %ID/g
C=CC(=O)N1CCC(c2ccc(C(N)=O)c(-c3ccc(Oc4ccccc4)cc3)n2)CC1	CTCAE 4.03	patients with relapsed/refractory MCL	oral, 100 mg twice daily	incidence of fatal serious TRAEs	0%
CC(=O)NCC(=O)NCC(=O)N[C@H](C(=O)N[C@@H](Cc1ccc(O)cc1)C(=O)N[C@@H](CO)C(=O)N[C@H]1CSSC[C@@H](C(=O)N[C@@H](CCCNC(=N)N)C(=O)N2CCC[C@H]2C(=O)N[C@@H](CCC(N)=O)C(=O)N[C@@H](CCCNC(=N)N)C(=O)NCC(=O)NCCC(=O)N[C@@H](CCCCNC(=O)CN(CC(=O)NCCCC[C@H](NC(=O)CCNC(=O)CNC(=O)[C@H](CCCNC(=N)N)NC(=O)[C@H](CCC(N)=O)NC(=O)[C@@H]2CCCN2C(=O)[C@H](CCCNC(=N)N)NC(=O)[C@@H]2CSSC[C@H](NC(=O)[C@H](CO)NC(=O)[C@H](Cc3ccc(O)cc3)NC(=O)[C@@H](NC(=O)CNC(=O)CNC(C)=O)[C@@H](C)O)C(=O)N[C@@H](Cc3c[nH]cn3)C(=O)N[C@@H](Cc3ccccc3)C(=O)NCC(=O)N[C@@H](C)C(=O)N[C@@H](CC(C)C)C(=O)N[C@@H]([C@@H](C)O)C(=O)N[C@@H](Cc3c[nH]c4ccccc34)C(=O)N[C@@H](C(C)C)C(=O)N2)C(N)=O)C(=O)CCN)C(N)=O)NC(=O)[C@H](C(C)C)NC(=O)[C@H](Cc2c[nH]c3ccccc23)NC(=O)[C@H]([C@@H](C)O)NC(=O)[C@H](CC(C)C)NC(=O)[C@H](C)NC(=O)CNC(=O)[C@H](Cc2ccccc2)NC(=O)[C@H](Cc2c[nH]cn2)NC1=O)[C@@H](C)O	MSD immunoassay	BALB/c mice, healthy female, serum	subcutaneous, 0.08 mg/kg, 24 h, LLOQ 2.0 ng/mL	serum concentration	not detected
CC(C)c1nc(N(C)S(C)(=O)=O)nc(-c2ccc(F)cc2)c1/C=C/[C@@H](O)C[C@@H](O)CC(=O)O	–	healthy human subjects	oral, dose not given, study CL-0537 safety set	incidence of Constipation	3.6%
Nc1ncnc2c1ncn2[C@@H]1O[C@@H]2COP(=O)([S-])O[C@@H]3[C@H](O)[C@@H](COP([O-])(=S)O[C@H]2[C@H]1O)O[C@H]3n1cnc2c(N)ncnc21.[Na+].[Na+] (some centres unmarked)	–	non-tumor-bearing mice, serum	intravenous, 1 mg/kg, toxicity study	total protein	53.1 ± 3.11 g/L
CCCC1CCC(C2CCC(c3ccc(F)c(F)c3)CC2)CC1 (centres unmarked)	–	rat, fetus	1000 ng/mL in perfusate, middle dose, mixture of 21 LCMs	fetal accumulation	0.102 ± 0.063 ng/g
C=CC(=O)N[C@H]1C=C(C)c2c(-c3cnc4ccccc4c3)c3c(N)ncnc3n2C1	two-compartment PK model	mouse, plasma	oral	intercompartmental clearance	0.455 L/h
CC(=O)c1c(C)c2cnc(Nc3ccc(C4CCN(CCS(C)(=O)=O)CC4)cn3)nc2n(C2CCCC2)c1=O	–	HR+/HER2- advanced breast cancer patients	oral, dose not given, all grades,, total	patients with Neutropenia	97.5%
NCCOCC(=O)N1CCCC(C(=O)NCc2nc(-c3ccc(-c4ccc(F)cc4)cc3)cs2)C1 (centres unmarked)	–	male Sprague Dawley rat	intravenous, 1 mg/kg	clearance	50 mL/min/kg
COc1cc2c(Oc3ccc4[nH]c(C)cc4c3F)ccnc2cc1OCC1(N)CC1	–	paediatric recurrent refractory sarcoma	8 mg	Leukopenia incidence	0%
CC(C)(c1ccccc1)c1cc(-n2nc3ccccc3n2)c(O)c(C(C)(C)c2ccccc2)c1	–	human aged 6-11 years	concentration not given, sunscreen, 95th percentile	daily dermal exposure dose	1.8 ng/kg/day
CN1CCN(S(=O)(=O)c2cc([N+](=O)[O-])ccc2N(CCOS(C)(=O)=O)CCOS(C)(=O)=O)CC1	–	naive NOD/SCID mice, pooled blood	intraperitoneal, 12.5 mg/kg, week 4	amylase	762 U/L
O=C1NC(=O)C(c2ccccc2)(c2ccccc2)N1	PAMPA	pre-coated trilayer membrane	200 µM, 5 h, pH 7.4, acceptor plate, PBS	acceptor concentration	24 ± 1.5 µM
